Assay results pooled from the literature.
Protocols differ between the studies behind these lines. ± gives the spread as reported.

C[C@H]1C(OCCCCCC[P+](c2ccccc2)(c2ccccc2)c2ccccc2)O[C@@H]2O[C@@]3(C)CCC4[C@H](C)CCC1[C@]42OO3 (stereo partly shown)
IC50 (HUVEC; cell viability, MTT; 72 h): 0.322 ± 0.0102 µM

Cc1ccc(-n2nc3c(=O)n(CCCC(=O)NCC(C)c4ccccc4)nc(C)c3c2C)cc1 (stereo not shown)
IC50 (primary pancreatic cancer KRAS G12D; cell growth, CCK-8; 72 h): > 100 µM

Cc1cc(Nc2nc(C[C@@]3(C(=O)O)CCN(Cc4cccc(Cl)c4F)[C@H](C)C3)cc(C)c2F)[nH]n1
IC50 (NCI-H209; cell proliferation; 5 days): 0.406 µM

CN(C)C(=O)[C@@H](NC(=O)c1cnccc1-c1ccc(C(F)(F)F)cc1)c1cc(Cl)cc(C(F)(F)F)c1
IC50 (KHYG-1 with Ba/F3-MICA cells; NKG2D-mediated cell killing, inhibitor; 6 h): 0.2 ± 0.1 µM

COc1c(O)c(-c2c(O)c(OC)c(OC)c3c2ccc2cc(O)ccc23)c2c(c1OC)-c1ccc(O)cc1CC2
IC50 (human Fibroblast; cell growth or viability, CCK-8; 24 h): 9.69 µM

F[P-](F)(F)(F)(F)F.OCP(CO)CO.OCP(CO)CO.OCP(CO)CO.OCP(CO)CO.[Cu+]
IC50 (SW480; cell growth or viability, MTT; 72 h): 1.33 µM

CC1=CC(C)=[N+]2C1=Cc1ccc(CCC(=O)NCC3C[NH][Pt]([Cl])([Cl])[NH]3)n1[B-]2(F)F (stereo not shown)
IC50 (KB 3-1; cell growth or viability, ATP luminescence): 36.9 µM

CN(C)C(=O)C(NC(=O)c1ccccc1-c1ccc(C(F)(F)F)cc1)c1cccc(C(F)(F)F)c1 (stereo not shown)
IC50 (KHYG-1 with Ba/F3-MICA cells; NKG2D-mediated cell killing, inhibitor; 6 h): 3 ± 1.1 µM

C[C@H]1C(OCCCCCCCCCCC[P+](c2ccccc2)(c2ccccc2)c2ccccc2)O[C@@H]2O[C@@]3(C)CCC4[C@H](C)CCC1[C@]42OO3 (stereo partly shown)
IC50 (HUVEC; cell viability, MTT; 72 h): 0.148 ± 0.0093 µM

CC1N=C(CCCCCCCCCCC2=CC(CCCCCCCCCCC3=NC(C)C(O)CC3)C3CCCN3C2)CCC1O (stereo not shown)
IC50 (Vero; cytotoxicity, Neutral Red): > 23.8 µg/mL

C(#C[P+](c1ccccc1)(c1ccccc1)c1ccccc1)c1ccccc1
IC50 (human melanoma cell lines; cell viability, MTT; 72 h): 0.5 to 1.5 µM

CNC(=O)c1cc(Oc2ccc(NC(=O)c3ccc(-c4ccc(COC(=O)CCC(=O)OC5OC6OC7(C)CCC8C(C)CCC(C5C)C68OO7)cc4)cn3)cc2)ccn1 (stereo not shown)
IC50 (L02; cell growth or viability, MTT; 72 h): > 100 µM

O=C(Cc1ccc2ccccc2c1)N[C@H](Cc1ccccc1)C(=O)N[C@H](Cc1ccccc1)C(=O)N[C@H](Cc1ccc(O)cc1)C(=O)N[C@H](Cc1ccc(OP(=O)(O)O)cc1)C(=O)O
IC50 (T98G; cell growth or viability, MTT): 327 µg/mL

C[C@H]1C(OCCCC[P+](c2ccccc2)(c2ccccc2)c2ccccc2)O[C@@H]2O[C@@]3(C)CCC4[C@H](C)CCC1[C@]42OO3 (stereo partly shown)
IC50 (J82; cell growth or viability, MTT; 72 h): 0.189 µM

[Ga+3].[O-]c1ccc(Br)c2cccnc12.[O-]c1ccc(Br)c2cccnc12.[O-]c1ccc(Br)c2cccnc12
IC50 (L02; cell growth or viability, MTT; 72 h): 30 µM

C=C(CO)[C@H]1Cc2c(ccc3c2O[C@@H]2COc4cc(OC)c(OC)cc4[C@]2(O)C3=O)O1
IC50 (HUVEC; cell growth or viability, MTT; 72 h): > 50 µM

O=C1N[C@H]2[C@H](CS[C@H]2CCCCC(=O)OCc2ccnc(-c3cc(COC(=O)CCCC[C@@H]4SC[C@@H]5NC(=O)N[C@@H]54)ccn3)c2)N1.O=S(=O)([O-])C(F)(F)F.[Ru+2].c1cc[cH-]c1.c1ccc(P(c2ccccc2)c2ccccc2)cc1
IC50 (NIH3T3; cell growth or viability, MTT; 48 h): 7 µM

CNC(=O)c1cc(Oc2ccc(NC(=O)c3ccc(-c4ccccc4OC(=O)CCC(=O)OC4OC5OC6(C)CCC7C(C)CCC(C4C)C57OO6)cn3)cc2)ccn1 (stereo not shown)
IC50 (L02; cell growth or viability, MTT; 72 h): > 100 µM

CCOC12C(O)C(OC)C3(O)CC(C1C3OC(=O)c1ccccc1)C13C(OC)CCC4(COC)CN(CC)C1C2C(OC)C43 (stereo not shown)
IC50 (NCI-H460; cell growth or viability, MTT): 12.8 µM

CN(C)C(=O)[C@@H](NC(=O)c1cc(-c2ccnn2C)ccc1-c1ccc(C(F)(F)F)cc1)c1cccc(C(F)(F)F)c1
IC50 (KHYG-1 with Ba/F3-MICA cells; NKG2D-mediated cell killing, inhibitor; 6 h): 0.4 ± 0.08 µM

O=C(Cc1ccc2ccccc2c1)N[C@H](Cc1ccc(OP(=O)(O)O)cc1)C(=O)N[C@H](Cc1ccccc1)C(=O)N[C@H](Cc1ccccc1)C(=O)N[C@H](Cc1ccc(OP(=O)(O)O)cc1)C(=O)O
IC50 (T98G; cell growth or viability, MTT): 360 µg/mL

COCC12CN(C)C3C4C(OC)C1C3(C(OC)CC2O)C1CC2(O)C(OC)C(O)C4(O)C1C2OC(=O)c1ccccc1 (stereo not shown)
IC50 (HBE; cell growth or viability, MTT): 32.8 µM

COC(=O)CC[C@@H](NC(=O)[C@@H](Cc1ccc(OP(=O)(O)O)cc1)NC(=O)[C@@H](Cc1ccccc1)NC(=O)[C@@H](Cc1ccccc1)NC(=O)Cc1ccc2ccccc2c1)C(=O)OC
IC50 (CHOK; cell viability; 72 h): > 200 µM

O=C1C=CC(=O)c2c(O)ccc(O)c21
IC50 (HuCC-A1; cell growth or viability, MTT): 1.55 µM

Cc1ccnc(-c2cc(C)ccn2)c1.[C-]#[O+].[C-]#[O+].[C-]#[O+].[Re+]
IC50 (KB 3-1; cell viability): 4.3 ± 1.6 µM

Cc1cc(C)c(-n2ccn(-c3c(C)cc(C)cc3C)c2=[Se])c(C)c1.[Cl][Au]
IC50 (human ovarian cancer cells; cell viability, MTT; 72 h): 1.8 ± 0.3 µM

CCN1CC2(COC)CCC(OC)C34C5CC6C(OC)C(O)C(O)(C(CC23)C14)C5C6OC(=O)c1ccccc1 (stereo not shown)
IC50 (NCI-H460; cell growth or viability, MTT): 22.3 µM

C[C@H]1[C@H](OCCc2ccc(O)cc2)O[C@@H]2O[C@@]3(C)CC[C@H]4[C@H](C)CC[C@@H]1[C@@]24OO3
IC50 (C3PV; cell growth or viability, MTT; 24 h): 1.76 µM

O=S(=O)([O][Pt]([O]S(=O)(=O)C(F)(F)F)([PH](c1ccccc1)(c1ccccc1)c1ccc[cH-]1)[PH](c1ccccc1)(c1ccccc1)c1ccc[cH-]1)C(F)(F)F.[Fe+2]
IC50 (KB; cell growth, MTT; 24 h): 76.6 µM

CCOC(=O)[C@H]1Cc2c(cc([N+](=O)[O-])cc2[N+](=O)[O-])[C@H](O)[C@]12C(=O)Nc1ccccc12
IC50 (T98G; cell growth or viability, MTT; 24 h): > 50 µM

C[C@H]1[C@H](OC(=O)CCC(=O)O[C@H]2CO[C@H]3[C@@H]2OC[C@H]3O[N+](=O)[O-])O[C@@H]2O[C@@]3(C)CC[C@H]4[C@H](C)CC[C@@H]1[C@@]24OO3
IC50 (L02; cell growth or viability, CCK-8; 72 h): 3.08 µM

CCN1CC2(COC)CCC(OC)C34C5CC6C(OC)CC(O)(C(CC23)C14)C5C6OC(=O)c1ccccc1 (stereo not shown)
IC50 (HBE; cell growth or viability, MTT): 44.5 µM

Cc1cc(C)c(-n2c[n+](-c3c(C)cc(C)cc3C)c3c2-c2cccc4cccc-3c24)c(C)c1.[Cl][Pd-]([Cl])[CH2]C=Cc1ccccc1
IC50 (NTERA2; cell growth or viability, MTT; 72 h): 1.1 µM

CC(C)OC(=O)C(n1cccn1)n1cccn1.F[P-](F)(F)(F)(F)F.[Cu+].c1ccc(P(c2ccccc2)c2ccccc2)cc1
IC50 (LoVo; cell growth or viability, MTT; 72 h): 6.6 µM

CCN1CC2(COC)CCC(O)C34C5CC(C(CO)OC)CC5C(=O)C(C(OC)C23)C14 (stereo not shown)
IC50 (HBE; cell growth or viability, MTT): 26.9 µM

CC[C@H](C)[C@H](NC(=O)[C@H](CCCNC(=N)N)NC(=O)[C@H](CCCNC(=N)N)NC(=O)[C@H](CCCNC(=N)N)NC(=O)[C@@H](NC(=O)[C@@H](NC(=O)[C@H](C)NC(=O)[C@H](CCCNC(=N)N)NC(=O)[C@H](CCCNC(=N)N)NC(=O)[C@H](CCCNC(=N)N)NC(=O)[C@@H]1CCCN1C(=O)[C@@H](N)CCCNC(=N)N)[C@@H](C)O)[C@@H](C)O)C(=O)N[C@H](C(=O)N[C@H](C(=O)NCC(=O)N[C@H](C(=O)N[C@@H](CCCNC(=N)N)C(=O)N[C@@H](CCCNC(=N)N)C(=O)N[C@@H](CCCNC(=N)N)C(=O)N[C@@H](CCCNC(=N)N)C(N)=O)[C@@H](C)O)[C@@H](C)O)[C@@H](C)O
IC50 (BT-474; cell viability, CellTiter-Blue; 24 h, serum-free medium): 92.8 ± 1.1 µM

C[C@@H]1CCC2[C@@H](C)[C@@H](OCCC[P+](c3ccccc3)(c3ccccc3)c3ccccc3)O[C@@H]3O[C@@]4(C)CCC1[C@@]23OO4 (stereo partly shown)
IC50 (J82; cell growth or viability, MTT; 72 h): 0.229 µM

OC[C@H]1[C@@H](O)[C@@H](O)CN1Cc1ccccc1
IC50 (CEM-DNR daunorubicin resistant; MTS; 72 h): 93 ± 11 µM

CC[C@H]1OC(=O)[C@H](C(C)C)NC(=O)[C@H](C)OC(=O)[C@@H](C(C)C)NC(=O)[C@@H](C(C)C)OC(=O)[C@H](C(C)C)NC(=O)[C@H](C)OC(=O)[C@@H](C(C)C)NC(=O)[C@@H](C(C)C)OC(=O)[C@H](C(C)C)NC(=O)[C@H](C)OC(=O)[C@@H](C(C)C)NC1=O
IC50 (human Astrocyte; cell growth or viability): 9.1 µM

CCN1CC2(COC)CCC(O)C34C5CC6C(OC)CC(O)(C5C6O)C(C(OC)C23)C14 (stereo not shown)
IC50 (NCI-H460; cell growth or viability, MTT): 12.7 µM

CC(=O)OC12COC1CC(OC(=O)CCCOc1ccc3c(-c4ccccc4C(=O)OCC(C)C)c4ccc(=O)cc-4oc3c1)C1(C)C(=O)C(OC(=O)C3CC3)C3=C(C)C(OC(=O)C(O)C(C=C(C)C)NC(=O)OC(C)(C)C)CC(O)(C(OC(=O)c4ccccc4)C21)C3(C)C (stereo not shown)
IC50 (ID8 mouse ovarian cancer; cell growth; concentration not given): 0.846 ± 0.112 µM

CCN1CC2(COC)CCC(O)C34C5CC6C(OC)CC(O)(C(CC23)C14)C5C6O (stereo not shown)
IC50 (HBE; cell growth or viability, MTT): 21.4 µM

[Cl][Ag].[Se]=c1n(C2CCCCC2)ccn1C1CCCCC1
IC50 (human ovarian cancer cells; cell viability, MTT; 72 h): 3.3 ± 0.9 µM

A few entries again:
Cc1ccc(-n2nc3c(=O)n(CCCC(=O)NCC(C)c4ccccc4)nc(C)c3c2C)cc1 (stereo not shown)
IC50 (primary pancreatic cancer KRAS G12D; cell growth, CCK-8; 72 h): > 100 µM

Cc1cc(Nc2nc(C[C@@]3(C(=O)O)CCN(Cc4cccc(Cl)c4F)[C@H](C)C3)cc(C)c2F)[nH]n1
IC50 (NCI-H209; cell proliferation; 5 days): 0.406 µM

CN(C)C(=O)[C@@H](NC(=O)c1cnccc1-c1ccc(C(F)(F)F)cc1)c1cc(Cl)cc(C(F)(F)F)c1
IC50 (KHYG-1 with Ba/F3-MICA cells; NKG2D-mediated cell killing, inhibitor; 6 h): 0.2 ± 0.1 µM

COc1c(O)c(-c2c(O)c(OC)c(OC)c3c2ccc2cc(O)ccc23)c2c(c1OC)-c1ccc(O)cc1CC2
IC50 (human Fibroblast; cell growth or viability, CCK-8; 24 h): 9.69 µM
